Assay results from different studies.
Lines come from different studies, so protocols differ.
Medium: plasma

| Compound | test | system | conditions | how to read | quantity | result |
| --- | --- | --- | --- | --- | --- | --- |
| CN1CCC[C@]1(C)/C=C/S(=O)(=O)NC(=O)Nc1c2c(cc3c1C(O)CC3)CCC2 (stereo partly drawn) | – | human | oral, 50 mg twice daily of parent drug, day 14, metabolite of dosed drug | – | AUC(0-t) | 297000 ng·h/mL |
| COc1cc2c(cc1OC)[C@H]1C[C@@H](O)[C@H](CC(C)C)CN1CC2 | item: non-deuterated analyte | healthy human male | oral, 25 mg, geometric mean, [14C]-tetrabenazine dosed | – | AUC(0-t) | 109 ng·h/mL |
| O=C(CCc1ccc(CNC(C(=O)O)C2CCCCC2)cn1)NO (stereo not drawn) | – | healthy male humans | oral, 40 mg, single dose | reference: fed over fasted | AUC(0-t) ratio | 0.93 |
| CN1CCC[C@]1(C)/C=C/S(=O)(=O)NC(=O)Nc1c2c(cc3c1CCC3O)CCC2 (stereo partly drawn) | – | human | oral, 12.5 mg twice daily of parent drug, day 14, metabolite of dosed drug | – | AUC(0-t) | 283000 ng·h/mL |
| Cc1cc(F)ccc1-c1cc(N2C[C@H]3COC(O)CN3C[C@H]2CO)ncc1N(C)C(=O)C(C)(C)c1cc(C(F)(F)F)cc(C(F)(F)F)c1 (stereo partly drawn) | – | human | oral, 120 mg, geometric mean | – | AUC(0-t) | 2380 ng·h/mL |
| COc1cc2c(cc1O)CCN1C[C@@H](CC(C)C)[C@@H](O)C[C@H]21 | item: non-deuterated analyte | healthy human male | oral, 25 mg, geometric mean, [14C]-tetrabenazine dosed | – | AUC(0-t) | 160 ng·h/mL |
| CC1(C)CC[C@]2(NC(=O)C(C)(F)F)CC[C@]3(C)[C@H](C(=O)C=C4[C@@]5(C)C=C(C#N)C(=O)C(C)(C)[C@@H]5CC[C@]43C)[C@@H]2C1 | – | human | oral, 150 mg, alone, geometric least-squares mean | – | AUC(0-t) | 1340 ng·h/mL |
| CC[C@H](C)[C@@H]1NC(=O)[C@H](Cc2ccc(O)cc2)NC(=O)CCCSC[C@@H](C(=O)N(CC(=O)N[C@@H](CC(C)C)C(=O)NCC(N)=O)Cc2ccc(F)cc2)NC(=O)[C@H](CC(N)=O)NC(=O)[C@H](CCC(N)=O)NC1=O | – | healthy human | intranasal, 50 µg every 3 h, after second dose | – | AUC(0-t) | 0.028 ng·h/mL |
| CN1CCC[C@]1(C)/C=C/S(=O)(=O)NC(=O)Nc1c2c(cc3c1CCC3)CC=C2 | – | human | oral, 12.5 mg twice daily of parent drug, day 14, metabolite of dosed drug | – | AUC(0-t) | 189000 ng·h/mL |

Excerpt of the above:
| Compound | test | system | conditions | how to read | quantity | result |
| --- | --- | --- | --- | --- | --- | --- |
| CN1CCC[C@]1(C)/C=C/S(=O)(=O)NC(=O)Nc1c2c(cc3c1C(O)CC3)CCC2 (stereo partly drawn) | – | human | oral, 50 mg twice daily of parent drug, day 14, metabolite of dosed drug | – | AUC(0-t) | 297000 ng·h/mL |
